Experimental data gathered from unrelated publications.
Lines come from different studies, so protocols differ. Several values in a cell are separate wells, animals, samples, runs or records. ± marks the error that the study gave.
TXK: Tyrosine-protein kinase TXK (TXK, Homo sapiens, UniProt P42681)
Sequence of UniProt P27361 (whole entry, looked up): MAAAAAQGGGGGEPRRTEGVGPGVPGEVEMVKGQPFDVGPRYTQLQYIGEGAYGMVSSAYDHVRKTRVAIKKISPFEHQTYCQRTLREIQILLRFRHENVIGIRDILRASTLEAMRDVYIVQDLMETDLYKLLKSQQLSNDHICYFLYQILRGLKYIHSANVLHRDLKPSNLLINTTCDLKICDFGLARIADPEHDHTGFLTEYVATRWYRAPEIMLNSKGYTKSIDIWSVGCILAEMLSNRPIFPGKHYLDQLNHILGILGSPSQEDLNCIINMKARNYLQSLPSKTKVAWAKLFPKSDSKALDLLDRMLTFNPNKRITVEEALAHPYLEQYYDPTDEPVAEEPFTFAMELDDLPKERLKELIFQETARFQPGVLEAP
Sequence of UniProt P42681 (whole entry, looked up): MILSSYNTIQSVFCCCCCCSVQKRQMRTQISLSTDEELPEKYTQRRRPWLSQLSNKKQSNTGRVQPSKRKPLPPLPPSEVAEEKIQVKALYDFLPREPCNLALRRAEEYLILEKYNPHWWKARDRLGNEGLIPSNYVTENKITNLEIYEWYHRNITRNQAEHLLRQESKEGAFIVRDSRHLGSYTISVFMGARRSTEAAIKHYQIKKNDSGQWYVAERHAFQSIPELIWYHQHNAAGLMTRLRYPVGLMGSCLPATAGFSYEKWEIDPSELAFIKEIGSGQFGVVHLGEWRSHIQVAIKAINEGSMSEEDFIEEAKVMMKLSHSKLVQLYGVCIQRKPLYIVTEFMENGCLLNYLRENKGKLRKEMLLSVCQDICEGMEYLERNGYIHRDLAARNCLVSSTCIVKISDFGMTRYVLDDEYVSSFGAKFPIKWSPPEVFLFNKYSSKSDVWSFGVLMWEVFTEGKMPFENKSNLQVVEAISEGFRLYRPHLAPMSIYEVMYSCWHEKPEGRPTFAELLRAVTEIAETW
Sequence of UniProt A5GZW8 (whole entry, looked up): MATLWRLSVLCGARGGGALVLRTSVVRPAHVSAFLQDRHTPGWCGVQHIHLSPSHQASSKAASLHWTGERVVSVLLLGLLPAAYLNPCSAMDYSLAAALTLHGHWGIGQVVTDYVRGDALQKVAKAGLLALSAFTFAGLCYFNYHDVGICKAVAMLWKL
Sequence of UniProt D0VWV4 (whole entry, looked up): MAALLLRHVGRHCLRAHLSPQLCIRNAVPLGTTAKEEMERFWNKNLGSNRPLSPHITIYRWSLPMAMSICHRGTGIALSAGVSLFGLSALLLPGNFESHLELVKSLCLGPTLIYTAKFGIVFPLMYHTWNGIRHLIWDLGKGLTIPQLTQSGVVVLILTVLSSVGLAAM
Sequence of UniProt Q007T0 (whole entry, looked up): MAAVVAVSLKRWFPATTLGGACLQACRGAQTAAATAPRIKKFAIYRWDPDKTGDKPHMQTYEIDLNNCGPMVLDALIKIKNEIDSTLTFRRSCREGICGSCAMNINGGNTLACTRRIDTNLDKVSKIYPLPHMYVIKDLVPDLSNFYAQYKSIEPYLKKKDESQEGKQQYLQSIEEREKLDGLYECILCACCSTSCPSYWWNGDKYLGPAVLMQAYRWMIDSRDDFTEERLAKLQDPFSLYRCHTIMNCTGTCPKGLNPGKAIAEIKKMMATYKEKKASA
Sequence of UniProt Q8TBX8 (whole entry, looked up): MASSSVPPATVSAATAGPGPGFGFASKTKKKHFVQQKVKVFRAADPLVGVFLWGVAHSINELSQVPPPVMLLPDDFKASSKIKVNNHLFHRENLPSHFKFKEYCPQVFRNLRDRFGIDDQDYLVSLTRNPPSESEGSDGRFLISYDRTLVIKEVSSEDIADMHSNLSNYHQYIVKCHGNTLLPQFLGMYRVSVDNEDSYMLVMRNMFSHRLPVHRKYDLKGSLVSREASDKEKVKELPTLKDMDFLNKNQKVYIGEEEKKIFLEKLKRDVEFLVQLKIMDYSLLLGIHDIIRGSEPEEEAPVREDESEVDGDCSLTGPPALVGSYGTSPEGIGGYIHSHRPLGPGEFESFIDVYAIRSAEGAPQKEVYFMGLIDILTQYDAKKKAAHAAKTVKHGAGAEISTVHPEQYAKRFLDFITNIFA
Sequence of UniProt P22756 (whole entry, unmodified, looked up): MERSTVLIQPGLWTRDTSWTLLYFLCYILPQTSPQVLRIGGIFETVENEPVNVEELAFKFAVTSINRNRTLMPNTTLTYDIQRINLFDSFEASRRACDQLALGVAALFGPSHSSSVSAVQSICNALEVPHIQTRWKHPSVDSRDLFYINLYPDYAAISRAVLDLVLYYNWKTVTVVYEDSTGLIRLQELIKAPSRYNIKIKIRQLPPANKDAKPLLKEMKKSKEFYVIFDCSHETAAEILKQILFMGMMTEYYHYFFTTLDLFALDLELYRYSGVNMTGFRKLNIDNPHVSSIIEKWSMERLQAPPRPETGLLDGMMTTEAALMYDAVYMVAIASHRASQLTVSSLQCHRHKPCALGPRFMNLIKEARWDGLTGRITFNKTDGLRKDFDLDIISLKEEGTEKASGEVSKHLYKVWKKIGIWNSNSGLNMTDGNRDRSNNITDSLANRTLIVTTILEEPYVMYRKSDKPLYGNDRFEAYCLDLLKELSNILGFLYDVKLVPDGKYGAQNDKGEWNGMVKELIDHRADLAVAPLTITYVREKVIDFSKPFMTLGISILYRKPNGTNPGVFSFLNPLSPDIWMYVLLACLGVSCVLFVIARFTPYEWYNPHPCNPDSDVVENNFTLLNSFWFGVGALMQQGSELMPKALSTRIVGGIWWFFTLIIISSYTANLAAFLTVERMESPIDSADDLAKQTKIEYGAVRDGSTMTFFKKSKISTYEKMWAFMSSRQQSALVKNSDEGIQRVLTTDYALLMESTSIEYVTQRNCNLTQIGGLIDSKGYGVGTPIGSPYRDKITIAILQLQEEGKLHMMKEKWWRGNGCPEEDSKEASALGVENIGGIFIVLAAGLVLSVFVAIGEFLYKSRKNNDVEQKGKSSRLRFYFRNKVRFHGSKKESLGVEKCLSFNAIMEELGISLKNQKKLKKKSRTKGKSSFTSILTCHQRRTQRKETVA
Sequence of UniProt P07148 (whole entry, looked up): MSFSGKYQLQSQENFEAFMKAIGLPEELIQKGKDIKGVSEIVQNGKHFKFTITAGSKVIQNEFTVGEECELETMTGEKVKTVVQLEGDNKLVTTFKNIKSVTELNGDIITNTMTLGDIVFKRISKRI
Sequence of UniProt P08510 (whole entry, unmodified, looked up): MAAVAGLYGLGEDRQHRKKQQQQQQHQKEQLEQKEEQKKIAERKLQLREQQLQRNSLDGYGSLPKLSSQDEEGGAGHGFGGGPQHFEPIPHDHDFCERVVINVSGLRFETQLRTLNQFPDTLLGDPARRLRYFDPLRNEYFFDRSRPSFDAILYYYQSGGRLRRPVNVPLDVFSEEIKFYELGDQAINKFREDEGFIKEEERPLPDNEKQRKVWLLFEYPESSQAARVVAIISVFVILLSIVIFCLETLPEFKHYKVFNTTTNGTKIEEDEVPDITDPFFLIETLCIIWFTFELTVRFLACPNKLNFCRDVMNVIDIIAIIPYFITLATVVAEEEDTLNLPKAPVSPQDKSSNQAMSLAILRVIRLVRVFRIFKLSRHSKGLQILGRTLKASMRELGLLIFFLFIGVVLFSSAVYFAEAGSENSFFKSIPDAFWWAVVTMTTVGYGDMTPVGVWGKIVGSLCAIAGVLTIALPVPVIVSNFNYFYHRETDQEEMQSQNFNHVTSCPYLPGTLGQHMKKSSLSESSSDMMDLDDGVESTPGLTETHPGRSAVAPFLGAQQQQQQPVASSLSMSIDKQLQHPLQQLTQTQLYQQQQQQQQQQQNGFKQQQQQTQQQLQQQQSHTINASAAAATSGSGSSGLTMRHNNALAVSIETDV
Sequence of UniProt Q16539 (whole entry, looked up): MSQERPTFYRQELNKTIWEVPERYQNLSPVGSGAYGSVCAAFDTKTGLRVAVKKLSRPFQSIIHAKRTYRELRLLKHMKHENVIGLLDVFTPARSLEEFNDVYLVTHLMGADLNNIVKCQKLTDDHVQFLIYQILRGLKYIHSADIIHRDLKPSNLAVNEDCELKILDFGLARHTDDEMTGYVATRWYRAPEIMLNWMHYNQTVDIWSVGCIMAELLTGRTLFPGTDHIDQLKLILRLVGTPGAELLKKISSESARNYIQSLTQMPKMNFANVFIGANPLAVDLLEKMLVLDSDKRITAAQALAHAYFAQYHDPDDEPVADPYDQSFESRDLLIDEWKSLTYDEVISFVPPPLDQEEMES
Sequence of UniProt P78417 (whole entry, looked up): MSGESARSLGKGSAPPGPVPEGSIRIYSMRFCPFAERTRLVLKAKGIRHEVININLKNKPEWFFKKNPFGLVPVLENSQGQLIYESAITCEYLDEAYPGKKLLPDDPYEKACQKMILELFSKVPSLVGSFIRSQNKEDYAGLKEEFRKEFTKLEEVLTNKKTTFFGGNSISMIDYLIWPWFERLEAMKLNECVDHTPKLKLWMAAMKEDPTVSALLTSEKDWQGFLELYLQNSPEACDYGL
Sequence of UniProt Q13946 (whole entry, looked up): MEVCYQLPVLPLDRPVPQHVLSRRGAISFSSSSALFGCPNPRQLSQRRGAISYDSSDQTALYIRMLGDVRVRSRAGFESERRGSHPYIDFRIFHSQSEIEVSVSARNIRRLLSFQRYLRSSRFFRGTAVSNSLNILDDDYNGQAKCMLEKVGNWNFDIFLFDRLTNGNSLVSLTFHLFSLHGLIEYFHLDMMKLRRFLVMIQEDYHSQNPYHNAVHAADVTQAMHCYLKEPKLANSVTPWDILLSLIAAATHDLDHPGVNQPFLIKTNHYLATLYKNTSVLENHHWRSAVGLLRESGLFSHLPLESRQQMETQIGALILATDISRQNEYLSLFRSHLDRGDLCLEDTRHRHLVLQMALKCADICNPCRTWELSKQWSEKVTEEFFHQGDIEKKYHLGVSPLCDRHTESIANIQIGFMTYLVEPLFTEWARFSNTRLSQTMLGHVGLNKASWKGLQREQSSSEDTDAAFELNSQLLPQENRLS

Nc1nc2c(ncn2[C@@H]2O[C@H](COP(=O)(O)OP(=O)(O)OP(=O)(O)O)[C@@H](O)[C@H]2O)c(=O)[nH]1  binding enthalpy (GTP 3',8-cyclase (moaA, Staphylococcus aureus, UniProt P69848, R268K); isothermal titration calorimetry; concentration not given, 25 °C, R268K mutant, anaerobic): -15.1 ± 0.8 kcal/mol
NC(CC1(C(=O)O)CC2OC(CO)C(O)C(O)C2O1)C(=O)O (stereo not shown)  affinity reduction (Glutamate receptor ionotropic, kainate 1 (Rattus norvegicus, UniProt P22756, del402-416); [3H]kainate displacement; concentration not given; baseline: parent compound Ki): ~8 fold
COc1cc(F)cc2c(N3CCN4c5ccccc5OC[C@H]4C3)c(C#N)nnc12  efficacy (Metabotropic glutamate receptor 8 (GRM8, Homo sapiens, UniProt O00222); positive allosteric modulator; added: glutamate; baseline: glutamate maximum): 68%
O=C(CF)N[C@H]1[C@H]([C@H](O)[C@H](O)CO)O[C@@](OC[C@H]2O[C@@H](Oc3ccc([N+](=O)[O-])cc3)[C@H](O)[C@@H](O)[C@H]2O)(C(=O)O)C[C@@H]1O  kcat (Sialidase-2 (Homo sapiens, UniProt Q9Y3R4); substrate; 10 min, pH 5.0, 37 °C): 0.11 ± 0.01 s⁻¹
COc1cc(N)c(Cl)cc1C(=O)NC1CN2CCC1CC2 (stereo not shown)  log2 fold change (Probable G-protein coupled receptor 142 (Homo sapiens, UniProt Q7Z601); β-arrestin recruitment, TANGO luminescence, refers to: GPR142; concentration not given; baseline: basal luminescence): 0.191
COc1ccc(N2C(=O)N(c3c(C)cccc3Cl)Cc3cnc(Nc4ccc(C5CCN(C)CC5)cc4OC)nc32)nc1  inhibition (Serine/threonine-protein kinase MARK1 (MARK1, Homo sapiens, UniProt Q9P0L2); kinase activity; 0.5 µM): 50%
O=C(NNC(=O)c1csnn1)c1ccc(Cl)cc1  remaining activity (Acetyl-CoA synthetase (Cryptococcus neoformans, UniProt J9VFT1); 6.25 µM): 23.2%
O=C(c1ccc(Cl)cc1)N1CCN2C(=O)N(OC(=O)N3CCOc4ccccc43)C(=O)C2C1 (stereo not shown)  median protein ratio (Glutathione S-transferase omega-1 (GSTO1, Homo sapiens, UniProt P78417); MS-based ABPP; SW-620 conditioned medium; 10 µM; baseline: compound over DMSO, lower = more inhibition): 1.12
COC(=O)[C@@]1(O)C[C@H]2O[C@]1(C)n1c3ccccc3c3c4c(c5c6ccccc6n2c5c31)C(=O)NC4  kinase activity (Mitogen-activated protein kinase 3 (MAPK3, Homo sapiens, UniProt P27361); ADP-Glo; 29 nM, added: MBP substrate): 76.1% and 78.8% and 55.7%
CN1CCN(c2cc(-c3ccncc3)c(-c3ccc4ccccc4c3)nn2)CC1  activation (Adrenocorticotropic hormone receptor (MC2R, Homo sapiens, UniProt Q01718); agonist, FLIPR; 12.5 µM): 7.4%
Cn1cc(CN2CCCC(COc3ccccc3C(=O)N3CCCCC3)C2)c2ccccc21 (stereo not shown)  cytotoxicity efficacy (Vero-E6; CellTiter-Glo ATP; concentration not given, 72 h, retest 8-point duplicates; baseline: DMSO 0%, hyamine -100%, more negative, more toxic): 0%
CC[C@@H](C)[C@@H](NC(=O)[C@@H](Cc1ccc(O)cc1)NC(=O)[C@H]1CCCN1C(=O)[C@@H](CCCNC(=N)N)NC(=O)[C@H](N)Cc1c[nH]cn1)C(=O)N[C@H](C)C(=O)N[C@H](Cc1c[nH]cn1)C(=O)N[C@H](CCCNC(=N)N)C(=O)N[C@H](CCCCNC(=O)c1cccc(S(=O)(=O)F)c1)C(=O)N[C@H](Cc1ccc(O)cc1)C(=O)N[C@H](CO)C(=O)N[C@H](Cc1ccccc1)C(N)=O  surface TFRC expression (Transferrin receptor protein 1 (Tfrc, Mus musculus, UniProt Q62351); flow cytometry; MC-38; 48 h, unit not given; baseline: 0 h): 0.469
O=C(O)COP(=O)(O)O  Ki ratio (TPI1 (Saccharomyces cerevisiae, UniProt P00942, S211G); enzyme activity, competitive inhibitor, GPDH/NADH-coupled; pH 9.9, 25 °C, ionic strength 0.1 NaCl, added: glyceraldehyde 3-phosphate substrate; baseline: mutant over wild type): 1.6
O=c1c2ccccc2oc2cc(OCCCCc3ccccc3)ccc12  reaction velocity (Acetylcholinesterase (ache, Electrophorus electricus, UniProt O42275); enzyme activity; 0.36 µM, added: substrate 0.43 mM; higher = faster reaction): 0.0006 a.u.
C[C@H]1CN(c2n[nH]c3nc(N[C@H]4CC[C@H](NS(=O)(=O)CCC(F)(F)F)CC4)ncc23)CCO1  IC50 (Mitogen-activated protein kinase 14 (MAPK14, Homo sapiens, UniProt Q16539); competitor, Kinobeads competition; HEK293, K562, placenta extract): 1200 nM
Cc1ccc([C@H]2C[C@@H]2COc2cc(NCc3nnc(C)s3)nc(C)n2)nc1  selectivity ratio (High affinity 3',5'-cyclic-AMP phosphodiesterase 7A (PDE7A, Homo sapiens, UniProt Q13946); enzyme activity, inhibitor, IMAP fluorescence polarization; baseline: Ki target over Ki PDE10A2): > 2.59e+06 fold
C=C(CN(C(=O)c1c(C(F)F)nn(C)c1F)C1CC1)c1ccc(Cl)cc1Cl  reaction velocity (SDHD/SDHC/SDHB (Sus scrofa, UniProt A5GZW8+D0VWV4+Q007T0); enzyme activity, inhibitor, DCIP reduction; pig; 0.2 µM, added: DCIP 5 µM): 0.00153 µM/s and 0.00175 µM/s
Oc1cc(Br)cc(Br)c1Oc1ccc(Br)cc1Br  Vmax/Km (Sulfotransferase 1E1 (SULT1E1, Homo sapiens, UniProt P49888); sulfonation, substrate): 137 µL/min/mg
CSCC[C@H](NC(=O)CNC(=O)[C@H](CC(N)=O)NC(=O)[C@H](CCSC)NC(=O)[C@H](CCSC)NC(=O)[C@H](CCC(N)=O)NC(=O)[C@H](Cc1c[nH]c2ccccc12)NC(=O)[C@@H](N)CCSC)C(=O)N[C@@H](CO)C(=O)N[C@@H](CCC(N)=O)C(N)=O  binding stoichiometry reduction (huntingtin exon 1 bundled fibrils; EPR; concentration not given; baseline: protofibrils): ~6 fold
CC1(C)C=C(CNc2ccc3c(c2)Cc2cc(Br)ccc2-3)C(C)(C)N1[O]  T1 relaxation time (Amyloid-beta precursor protein, amyloid-beta (APP, Homo sapiens, UniProt P05067); MRI, MSME; 5xFAD mice, brain; iv, 3 mg/kg, 24 h): 1120 ms
COC1=C(OC)C(=O)C(CC=C(C)C)=C(C)C1=O  free energy difference (Reaction center protein L chain, QB site (pufL, Cereibacter sphaeroides, UniProt P0C0Y8); QB site binding; Rhodobacter sphaeroides, reaction centres): -581 meV
CCCCC(=O)Nc1ccc(-c2ccc3ncn(CCC)c(=O)c3c2)cn1  selectivity ratio (Phosphatidylinositol 5-phosphate 4-kinase type-2 gamma (PIP4K2C, Homo sapiens, UniProt Q8TBX8); binding; baseline: PI5P4Kβ over PI5P4Kα): 3000 fold and > 3000 fold
Cc1cc(SC2=C(O)C[C@@](CCc3ccc(N)cc3)(C(C)C)OC2=O)c(C(C)(C)C)cc1CO  binding fold change (Fatty acid-binding protein, liver (FABP1, Homo sapiens, UniProt P07148); affinity selection mass spectrometry; 100 nM, added: pooled compounds; baseline: other proteins): 20.3
COc1ccc(F)cc1C(=O)NCc1ccc(-c2nn([C@@H](C)C(F)(F)F)c(N)c2C(N)=O)cc1  selectivity ratio (TXK; target engagement, NanoBRET; HEK293; baseline: TXK over BTK): > 7600
[OH][Sb]([OH])[OH]  Km (ArsV Ensifer adhaerens; enzyme activity, substrate, HPLC-HG-AFS; added: NADPH and FAD): 2.2 µM
[2H]c1c([2H])c([C@]2([2H])CCCN2C(=O)C(C)(C)Oc2ccc3cn[nH]c3c2)c([2H])c([2H])c1C([2H])([2H])[2H]  remaining binding (TXK; KINOMEscan; 1 µM; baseline: DMSO control): 87%
CSCC[C@H](N)C(=O)N[C@@H](C)C(=O)N[C@@H](C)C(=O)N[C@H](C(=O)N[C@@H](C)C(=O)NCC(=O)N[C@@H](CC(C)C)C(=O)N[C@@H](Cc1ccc(O)cc1)C(=O)NCC(=O)N[C@@H](CC(C)C)C(=O)NCC(=O)N[C@@H](CCC(=O)O)C(=O)N[C@@H](CC(=O)O)C(=O)N[C@@H](CCCNC(=N)N)C(=O)N[C@@H](CCC(N)=O)C(=O)N[C@@H](Cc1c[nH]cn1)C(=O)N[C@@H](CCCNC(=N)N)C(=O)N[C@@H](CCCCN)C(=O)N[C@@H](CCCCN)C(=O)N[C@@H](CCC(N)=O)C(N)=O)C(C)C  Hill coefficient (Sh, DEL6-46 (Drosophila melanogaster, UniProt P08510); ion current, blocker, inside-out patch clamp; +30 mV): 0.88
CN1C(=O)CC[C@H](N2Cc3c(ccc4c3OCC43CCN(C[C@@H]4CCC5(CCN(c6ccc([C@@H]7c8ccc(O)cc8CC[C@@H]7c7ccccc7)cc6)CC5)OC4)CC3)C2=O)C1=O  ER protein level (Estrogen receptor (ESR1, Homo sapiens, UniProt P03372, Y537S); degrader, Western blot; MCF7 (ESR1 Y537S); 10 and 100 nM, 7 h): no effect
CCN(CC)CCCNC(=O)c1ccc(-c2nc(CN3CCc4ccccc43)c(C)o2)cc1  maximum response (Vero-E6; CellTiter-Glo ATP; 72 h, second round 5-point; baseline: DMSO 0%, hyamine -100%, more negative, more toxic): -3.06%
O=C(Nc1cccnn1)N1CCC(=Cc2cccc(Oc3ccc(C(F)(F)F)cn3)c2)CC1  inhibition of binding (5-hydroxytryptamine receptor 3A (HTR3A, Homo sapiens, UniProt P46098); radioligand binding; 10 µM, added: [3H]GR-65630): -14%
O=C(CCCCCCCCCN=C=S)CC(=O)N[C@H]1CCOC1=O  Emax (Regulatory protein SdiA (sdiA, Escherichia coli, UniProt P07026)): ~70%

For quick reference, copied from above:
[OH][Sb]([OH])[OH]  Km (ArsV Ensifer adhaerens; enzyme activity, substrate, HPLC-HG-AFS; added: NADPH and FAD): 2.2 µM
[2H]c1c([2H])c([C@]2([2H])CCCN2C(=O)C(C)(C)Oc2ccc3cn[nH]c3c2)c([2H])c([2H])c1C([2H])([2H])[2H]  remaining binding (TXK; KINOMEscan; 1 µM; baseline: DMSO control): 87%
CSCC[C@H](N)C(=O)N[C@@H](C)C(=O)N[C@@H](C)C(=O)N[C@H](C(=O)N[C@@H](C)C(=O)NCC(=O)N[C@@H](CC(C)C)C(=O)N[C@@H](Cc1ccc(O)cc1)C(=O)NCC(=O)N[C@@H](CC(C)C)C(=O)NCC(=O)N[C@@H](CCC(=O)O)C(=O)N[C@@H](CC(=O)O)C(=O)N[C@@H](CCCNC(=N)N)C(=O)N[C@@H](CCC(N)=O)C(=O)N[C@@H](Cc1c[nH]cn1)C(=O)N[C@@H](CCCNC(=N)N)C(=O)N[C@@H](CCCCN)C(=O)N[C@@H](CCCCN)C(=O)N[C@@H](CCC(N)=O)C(N)=O)C(C)C  Hill coefficient (Sh, DEL6-46 (Drosophila melanogaster, UniProt P08510); ion current, blocker, inside-out patch clamp; +30 mV): 0.88
CN1C(=O)CC[C@H](N2Cc3c(ccc4c3OCC43CCN(C[C@@H]4CCC5(CCN(c6ccc([C@@H]7c8ccc(O)cc8CC[C@@H]7c7ccccc7)cc6)CC5)OC4)CC3)C2=O)C1=O  ER protein level (Estrogen receptor (ESR1, Homo sapiens, UniProt P03372, Y537S); degrader, Western blot; MCF7 (ESR1 Y537S); 10 and 100 nM, 7 h): no effect
